{"data": "Literature values, collected from citations in different studies", "PMIV": "Plasmepsin IV (PMIV, Plasmodium falciparum 3D7, UniProt Q8IM16)", "note": "Lines come from different studies, so protocols differ. ± gives the spread as reported.", "chain of UniProt Q8IM16 (whole entry, looked up)": "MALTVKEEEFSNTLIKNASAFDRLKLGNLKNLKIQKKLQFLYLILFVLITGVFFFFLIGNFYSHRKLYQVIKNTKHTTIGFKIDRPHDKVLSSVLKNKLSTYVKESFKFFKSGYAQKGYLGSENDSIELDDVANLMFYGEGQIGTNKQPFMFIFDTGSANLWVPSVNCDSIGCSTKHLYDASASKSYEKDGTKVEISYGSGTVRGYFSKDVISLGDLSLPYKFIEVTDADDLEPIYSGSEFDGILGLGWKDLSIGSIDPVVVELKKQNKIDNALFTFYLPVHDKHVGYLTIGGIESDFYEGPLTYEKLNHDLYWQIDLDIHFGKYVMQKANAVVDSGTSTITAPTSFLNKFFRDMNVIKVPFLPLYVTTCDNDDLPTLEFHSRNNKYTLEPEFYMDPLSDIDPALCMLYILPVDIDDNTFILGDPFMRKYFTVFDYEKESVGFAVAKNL", "chain of UniProt P52699 (whole entry, looked up)": "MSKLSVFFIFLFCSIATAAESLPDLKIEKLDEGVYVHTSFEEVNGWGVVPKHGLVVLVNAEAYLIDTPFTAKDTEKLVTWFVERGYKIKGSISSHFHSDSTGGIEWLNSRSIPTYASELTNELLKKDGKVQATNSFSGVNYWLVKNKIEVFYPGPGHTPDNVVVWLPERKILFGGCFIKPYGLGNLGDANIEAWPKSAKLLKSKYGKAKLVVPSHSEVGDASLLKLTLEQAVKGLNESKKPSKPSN", "chain of UniProt P35368 (whole entry, looked up)": "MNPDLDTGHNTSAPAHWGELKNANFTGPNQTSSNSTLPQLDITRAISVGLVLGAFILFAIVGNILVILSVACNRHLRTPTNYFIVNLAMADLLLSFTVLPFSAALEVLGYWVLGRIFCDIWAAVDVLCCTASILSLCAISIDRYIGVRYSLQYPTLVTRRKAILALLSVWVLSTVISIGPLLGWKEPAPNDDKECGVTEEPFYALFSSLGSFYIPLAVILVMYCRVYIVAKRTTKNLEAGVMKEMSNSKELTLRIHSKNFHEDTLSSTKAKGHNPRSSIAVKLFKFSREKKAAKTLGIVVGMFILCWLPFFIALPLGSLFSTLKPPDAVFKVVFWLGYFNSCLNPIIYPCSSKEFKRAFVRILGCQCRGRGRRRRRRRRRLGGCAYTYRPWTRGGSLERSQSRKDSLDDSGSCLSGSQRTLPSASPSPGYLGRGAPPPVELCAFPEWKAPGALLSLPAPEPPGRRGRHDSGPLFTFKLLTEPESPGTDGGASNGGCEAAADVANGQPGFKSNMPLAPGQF", "chain of UniProt P30803 (whole entry, looked up)": "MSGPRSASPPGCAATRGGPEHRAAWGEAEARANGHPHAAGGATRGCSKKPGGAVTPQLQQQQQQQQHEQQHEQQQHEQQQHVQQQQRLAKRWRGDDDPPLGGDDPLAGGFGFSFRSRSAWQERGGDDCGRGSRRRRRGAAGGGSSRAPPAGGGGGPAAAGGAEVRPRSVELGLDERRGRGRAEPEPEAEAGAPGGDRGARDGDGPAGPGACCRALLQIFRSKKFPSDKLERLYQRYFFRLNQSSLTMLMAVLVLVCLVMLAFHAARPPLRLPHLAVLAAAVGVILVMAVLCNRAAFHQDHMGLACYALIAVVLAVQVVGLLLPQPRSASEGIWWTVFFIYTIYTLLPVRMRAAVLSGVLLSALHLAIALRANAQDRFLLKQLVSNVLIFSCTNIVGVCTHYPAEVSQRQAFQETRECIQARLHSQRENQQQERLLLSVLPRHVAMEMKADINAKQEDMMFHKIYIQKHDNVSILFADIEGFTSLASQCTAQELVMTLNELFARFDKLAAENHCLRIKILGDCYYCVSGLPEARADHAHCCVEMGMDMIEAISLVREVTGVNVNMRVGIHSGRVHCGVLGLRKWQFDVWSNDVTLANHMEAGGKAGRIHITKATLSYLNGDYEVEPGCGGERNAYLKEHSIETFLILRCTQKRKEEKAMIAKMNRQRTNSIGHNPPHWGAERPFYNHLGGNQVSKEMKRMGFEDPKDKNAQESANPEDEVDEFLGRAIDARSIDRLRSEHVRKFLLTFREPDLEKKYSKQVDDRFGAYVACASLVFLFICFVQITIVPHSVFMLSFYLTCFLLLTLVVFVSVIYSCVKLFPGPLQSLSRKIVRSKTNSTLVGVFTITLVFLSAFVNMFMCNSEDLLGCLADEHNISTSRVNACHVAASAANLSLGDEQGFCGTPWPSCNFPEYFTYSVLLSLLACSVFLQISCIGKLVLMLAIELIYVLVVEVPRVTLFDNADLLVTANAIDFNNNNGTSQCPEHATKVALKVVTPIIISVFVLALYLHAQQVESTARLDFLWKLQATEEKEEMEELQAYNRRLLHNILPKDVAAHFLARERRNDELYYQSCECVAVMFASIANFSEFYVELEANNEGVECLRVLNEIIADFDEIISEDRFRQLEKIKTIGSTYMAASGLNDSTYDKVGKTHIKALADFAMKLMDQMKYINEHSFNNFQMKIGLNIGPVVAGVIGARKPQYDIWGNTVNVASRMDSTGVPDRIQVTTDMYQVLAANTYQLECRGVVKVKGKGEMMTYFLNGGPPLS", "chain of UniProt O15379 (whole entry, looked up)": "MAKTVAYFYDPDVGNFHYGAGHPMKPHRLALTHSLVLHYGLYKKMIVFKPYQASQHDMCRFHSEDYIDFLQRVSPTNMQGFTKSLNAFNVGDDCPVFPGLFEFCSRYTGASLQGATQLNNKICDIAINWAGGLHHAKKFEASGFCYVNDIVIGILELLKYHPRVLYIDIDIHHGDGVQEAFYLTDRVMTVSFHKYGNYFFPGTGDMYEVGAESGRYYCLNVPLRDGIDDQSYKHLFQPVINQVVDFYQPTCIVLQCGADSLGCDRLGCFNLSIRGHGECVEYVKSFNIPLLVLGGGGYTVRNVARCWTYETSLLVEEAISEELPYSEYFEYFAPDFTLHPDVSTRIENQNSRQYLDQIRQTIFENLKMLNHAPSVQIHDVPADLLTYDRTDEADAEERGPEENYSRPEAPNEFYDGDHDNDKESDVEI", "chain of UniProt C7C422 (whole entry, looked up)": "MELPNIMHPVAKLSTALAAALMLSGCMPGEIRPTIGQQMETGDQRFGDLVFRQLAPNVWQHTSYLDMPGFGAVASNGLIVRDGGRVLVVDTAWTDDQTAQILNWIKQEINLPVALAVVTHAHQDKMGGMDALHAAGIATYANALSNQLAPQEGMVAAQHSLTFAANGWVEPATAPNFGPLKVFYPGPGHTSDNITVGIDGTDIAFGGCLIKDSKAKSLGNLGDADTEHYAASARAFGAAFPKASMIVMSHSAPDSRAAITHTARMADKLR", "chain of UniProt P33535 (whole entry, looked up)": "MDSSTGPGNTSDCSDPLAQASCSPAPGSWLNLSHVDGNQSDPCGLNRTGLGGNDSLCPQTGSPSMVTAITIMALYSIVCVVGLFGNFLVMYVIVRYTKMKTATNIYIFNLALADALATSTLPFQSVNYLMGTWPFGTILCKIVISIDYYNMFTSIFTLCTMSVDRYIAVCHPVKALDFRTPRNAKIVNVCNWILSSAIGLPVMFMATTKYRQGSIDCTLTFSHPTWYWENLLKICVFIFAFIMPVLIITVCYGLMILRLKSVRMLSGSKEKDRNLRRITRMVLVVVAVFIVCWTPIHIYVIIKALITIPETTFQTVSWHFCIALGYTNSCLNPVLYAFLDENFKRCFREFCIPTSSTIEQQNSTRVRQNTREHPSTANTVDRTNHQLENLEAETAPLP"}
{"Structure (SMILES)": "N[C@H](Cc1ccccc1)P(=O)(O)O", "target": "phenylalanine ammonia-lyase (maize)", "Ki": "11600 nM"}
{"Structure (SMILES)": "CCCC[C@@H](C(=O)N[C@@H](CC(=O)O)C(=O)N[C@@H](Cc1ccccc1)C(N)=O)N(C)C(=O)[C@@H](Cc1c[nH]c2ccccc12)NC(=O)CNC(=O)[C@@H](Cc1ccccc1)NC(=O)[C@@H](N)Cc1ccc(O)cc1", "target": "CCK2 receptor", "effect on": "binding", "Ki": "1.6 nM"}
{"Structure (SMILES)": "CCCC[C@@H](CN[C@@H](CC(C)C)C(=O)N[C@@H](CCC(N)=O)C(=O)N[C@H](C(=O)O)[C@@H](C)CC)NC(=O)[C@H](CO)NC(=O)[C@H](CCCC)NC(=O)[C@@H]1CCCN1C(=O)[C@@H](N)CCCCN", "target": "PMIV", "Ki": "22 ± 3 nM"}
{"Structure (SMILES)": "O=C(O)[C@@H]1CS[C@H]2CS[C@H](CS)N21", "target": "Metallo-beta-lactamase type 2 (Serratia marcescens, UniProt P52699)", "mode": "inhibitor", "Ki": "8000 ± 2000 nM"}
{"Structure (SMILES)": "CC[C@H](C)[C@@H]1NC(=O)[C@H](Cc2c[nH]c3ccccc23)NC(=O)[C@H](CCCCCC(=O)NO)NC(=O)[C@H]2CCCCN2C1=O", "target": "Histone deacetylase 3, with NCoR2 DAD domain (HDAC3, Homo sapiens, UniProt O15379)", "effect on": "enzyme activity", "mode": "inhibitor", "with": "NCoR2 DAD domain", "Ki": "~0.04 nM"}
{"Structure (SMILES)": "CCN1CCCC1CNC(=O)c1cc(Br)cc(OC)c1OC (stereo not drawn) [carbon-11 labelled]", "target": "dopamine D2long receptor", "with": "[3H]spiperone", "Ki": "0.65 nM"}
{"Structure (SMILES)": "O=C(NC1CCN(CCc2c[nH]c3ccccc23)CC1)c1ccccc1", "target": "ADRA1B (Homo sapiens, UniProt P35368)", "effect on": "binding", "Ki": "226 nM"}
{"Structure (SMILES)": "Nc1ccccc1C(=O)O[C@H]1[C@@H](O)[C@H](n2cnc3c(=O)[nH]cnc32)O[C@@H]1COP(=O)(O)O", "target": "ADCY5 (Canis lupus, UniProt P30803)", "effect on": "enzyme activity", "mode": "inhibitor", "sample": "Sf9 membranes", "with": "5 mM MnCl2 and 100 µM forskolin", "Ki": "4300 ± 600 nM"}
{"Structure (SMILES)": "CC(C)(C)c1ccc(C(=O)Nc2cc(Cl)c(Br)cc2C(=O)O)cc1", "target": "Phosphotransferase (Trypanosoma brucei, UniProt Q38C42)", "effect on": "enzyme activity", "mode": "mixed inhibitor", "with": "ATP", "Ki": "700 nM"}
{"Structure (SMILES)": "CC1(C)S[C@@H]2CS[C@@H](CS)N2[C@H]1C(=O)O", "target": "blaNDM-1 (Klebsiella pneumoniae, UniProt C7C422)", "mode": "inhibitor", "Ki": "12000 ± 1000 nM"}
{"Structure (SMILES)": "COC(=O)C1C(OC(c2ccc(Cl)cc2)c2ccc(Cl)cc2)CC2CCC1N2C (single isomer, unassigned)", "target": "serotonin transporter", "Ki": "528 ± 39 nM"}
{"Structure (SMILES)": "CSC[C@H]1CN(Cc2c[nH]c3c(N)ncnc23)C[C@@H]1O", "target": "Helicobacter pylori MTA/SAH nucleosidase", "mode": "inhibitor", "Ki": "0.571 nM"}
{"Structure (SMILES)": "O=C1N[C@@H](Cc2ccccc2)C(=O)N2CCC[C@@H]2C(=O)N[C@@H](Cc2ccccc2)C(=O)N[C@H]1Cc1c[nH]c2ccccc12", "target": "KOR opioid receptor", "effect on": "binding", "Ki": "35.4 ± 3.6 nM"}
{"Structure (SMILES)": "CC(C)C[C@H](NC(=O)[C@@H]1CCCN1C(=O)[C@@H](N)CCCCN)C(=O)N[C@@H](CCC(=O)O)C(=O)N[C@H](CN[C@@H](Cc1ccc(O)cc1)C(=O)N[C@@H](CCCNC(=N)N)C(=O)N[C@H](C(=O)O)C(C)C)Cc1ccccc1", "target": "PMIV", "Ki": "0.5 ± 0.09 nM"}
{"Structure (SMILES)": "CC1(C)SCCSC[C@@H](NC(=O)[C@@H](N)Cc2ccc(O)cc2)C(=O)N[C@@H](Cc2ccccc2)C(=O)N[C@H]1C(N)=O", "target": "Oprm1 (Rattus norvegicus, UniProt P33535)", "effect on": "binding", "Ki": "0.3 ± 0.04 nM"}
{"note": "For quick reference, copied from above:"}
{"Structure (SMILES)": "CC(C)C[C@H](NC(=O)[C@@H]1CCCN1C(=O)[C@@H](N)CCCCN)C(=O)N[C@@H](CCC(=O)O)C(=O)N[C@H](CN[C@@H](Cc1ccc(O)cc1)C(=O)N[C@@H](CCCNC(=N)N)C(=O)N[C@H](C(=O)O)C(C)C)Cc1ccccc1", "target": "PMIV", "Ki": "0.5 ± 0.09 nM"}
